Assay results gathered from unrelated publications.
Protocols differ between the studies behind these lines. “And” joins repeats or separate records; there may be more than shown.

For CNCc1ccc(-c2cc(=O)c3ccc4[nH]c(C(F)(F)F)nc4c3o2)cc1, the Cmax was 164 ng/g (ICR mice, brain; intravenous, 2 mg/kg).
The Cmax of N=C(N)NCCC[C@@H]1NC(=O)[C@H](CO)NC(=O)[C@@H](NC(=O)[C@H](CO)NC(=O)[C@H](CO)NC(=O)[C@H](Cc2c[nH]c3ccccc23)NC(=O)CNC(=O)[C@H](CO)NC(=O)[C@@H](N)Cc2c[nH]c3ccccc23)CSSC[C@@H](C(=O)NCC(=O)O)NC(=O)[C@H](CO)NC1=O is reported as 2480 ng/mL (patients, plasma; intravenous, 5 mg/kg, thrice weekly, mean).
C=C(NC(=O)c1csc(-c2nc3c(cc2O)-c2nc(cs2)C(=O)NC(C(C)O)C(=O)NC(=C(C)OC)c2nc(cs2)C(=O)NC2c4nc(cs4)C(=O)NC(COC(=O)c4c5c6c(cccc6n4O)COC(=O)C(OC4CC(C)(O)C(N(C)C)C(C)O4)C2OC5)c2nc-3cs2)n1)C(N)=O (stereo not shown) gave a Cmax of 341 ng/mL (ICR mice, Streptococcus pneumoniae ATCC 49169 infected, immunocompromised, blood; intravenous, 8 mg/kg/day three times daily).
CC1(C)CC[C@]2(NC(=O)C(C)(F)F)CC[C@]3(C)[C@H](C(=O)C=C4[C@@]5(C)C=C(C#N)C(=O)C(C)(C)[C@@H]5CC[C@]43C)[C@@H]2C1 gave a Cmax of 29.7 ng/mL (human, plasma; oral, dose not given, geometric least-squares mean, with: gemfibrozil).
The translation activity of COc1cc(CN(C)CC2CCCN(CCc3ccccc3F)C2)cc(Cl)c1OC (stereo not shown) is reported as 93.3% and 129% (Trypanosoma cruzi; reporter mRNA translation, inhibitor, measured: Renilla luciferase mRNA; cell-free extract; concentration not given, test 2; relative to: positive over negative control).
The Cmax of COC1CN([C@H]2CC[C@H]([C@@]3(C)Oc4c(Cl)cc(C(=O)NCc5c(SC)cc(C)[nH]c5=O)c(C)c4O3)CC2)C1 is reported as 2550 ng/mL (female CB17 SCID mice, HT-1376 xenograft, plasma; 75 mg/kg, day 1).
The Cmax of COCC1CN(C2CCN(c3cc(OC)c(Nc4ncc(Br)c(Nc5ccc6c(c5P(C)(C)=O)OCCO6)n4)cc3C)CC2)C1 is reported as 478 ng/mL (EGFR-mutant NSCLC patients, plasma; oral, 60 mg single dose, geometric mean).
O=[N+]([O-])c1cn2c(n1)O[C@@H](COc1ccc(-c3ccc(F)cc3)nc1)CC2 gave a translation activity of 101% and 148% (Trypanosoma cruzi; reporter mRNA translation, inhibitor, measured: Renilla luciferase mRNA; cell-free extract; concentration not given; relative to: positive over negative control).
The Cmax of CCCCCCCOc1ccc(CC[C@](N)(CO)COP(=O)(O)O)cc1C(F)(F)F is reported as 9.22 ng/mL (healthy human males, plasma; 0.75 mg, day 21).
With C=C[C@]1(C)C[C@@H](OC(=O)CSc2ccc(NC(=O)c3ccco3)cc2)[C@]2(C)[C@H](C)CC[C@]3(CCC(=O)[C@H]32)[C@@H](C)[C@@H]1O the Cmax was 5790 ng/mL (M. gallisepticum-infected chickens, plasma; intramuscular, 40 mg/kg single dose).

For quick reference, copied from above:
CC1(C)CC[C@]2(NC(=O)C(C)(F)F)CC[C@]3(C)[C@H](C(=O)C=C4[C@@]5(C)C=C(C#N)C(=O)C(C)(C)[C@@H]5CC[C@]43C)[C@@H]2C1 gave a Cmax of 29.7 ng/mL (human, plasma; oral, dose not given, geometric least-squares mean, with: gemfibrozil).
